# Measured values collected from several papers.
# Each line is one published result; not all experiments were run side by side. Numbers after ± are the reported error.
# GLP1R: Glucagon-like peptide 1 receptor (GLP1R, Homo sapiens, UniProt P43220)
# Sequence of UniProt P43220 (whole entry, looked up): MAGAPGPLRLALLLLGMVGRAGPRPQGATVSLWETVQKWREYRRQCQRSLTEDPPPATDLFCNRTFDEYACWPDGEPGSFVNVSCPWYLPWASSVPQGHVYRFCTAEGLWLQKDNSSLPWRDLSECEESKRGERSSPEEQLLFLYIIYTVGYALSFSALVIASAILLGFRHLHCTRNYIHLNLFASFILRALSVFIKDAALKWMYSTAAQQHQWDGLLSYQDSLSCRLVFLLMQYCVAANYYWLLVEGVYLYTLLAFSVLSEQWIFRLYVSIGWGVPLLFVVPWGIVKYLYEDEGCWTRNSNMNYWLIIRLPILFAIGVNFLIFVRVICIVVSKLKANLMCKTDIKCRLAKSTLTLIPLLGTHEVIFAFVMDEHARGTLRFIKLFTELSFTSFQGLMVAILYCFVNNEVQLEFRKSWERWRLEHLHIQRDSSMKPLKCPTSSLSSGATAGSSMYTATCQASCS
# CNR1: Cannabinoid receptor 1 (CNR1, Homo sapiens, UniProt P21554)
# Sequence of UniProt P21554 (whole entry, looked up): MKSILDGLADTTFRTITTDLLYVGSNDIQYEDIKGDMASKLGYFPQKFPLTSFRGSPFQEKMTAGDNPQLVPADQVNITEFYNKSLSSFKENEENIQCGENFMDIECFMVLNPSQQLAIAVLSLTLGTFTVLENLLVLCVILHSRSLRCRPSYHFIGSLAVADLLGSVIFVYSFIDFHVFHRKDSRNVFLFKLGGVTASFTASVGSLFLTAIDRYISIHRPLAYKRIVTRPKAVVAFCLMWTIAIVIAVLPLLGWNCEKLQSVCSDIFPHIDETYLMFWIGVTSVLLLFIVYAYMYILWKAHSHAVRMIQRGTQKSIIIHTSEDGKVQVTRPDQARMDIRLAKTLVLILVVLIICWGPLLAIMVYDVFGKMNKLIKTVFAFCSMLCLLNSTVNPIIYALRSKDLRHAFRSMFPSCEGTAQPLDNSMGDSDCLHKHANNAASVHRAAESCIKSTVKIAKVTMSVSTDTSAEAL
# Sequence of UniProt Q8TDU6 (whole entry, looked up): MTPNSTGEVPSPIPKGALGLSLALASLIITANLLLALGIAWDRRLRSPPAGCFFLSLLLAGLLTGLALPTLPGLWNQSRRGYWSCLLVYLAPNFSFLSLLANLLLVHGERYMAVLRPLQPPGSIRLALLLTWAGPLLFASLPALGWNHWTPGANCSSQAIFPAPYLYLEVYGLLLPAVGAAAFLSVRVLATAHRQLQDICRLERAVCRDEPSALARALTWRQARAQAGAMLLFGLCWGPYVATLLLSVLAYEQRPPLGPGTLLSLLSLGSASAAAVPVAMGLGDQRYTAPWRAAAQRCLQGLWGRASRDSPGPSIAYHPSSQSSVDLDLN
# Sequence of UniProt P35869 (whole entry, looked up): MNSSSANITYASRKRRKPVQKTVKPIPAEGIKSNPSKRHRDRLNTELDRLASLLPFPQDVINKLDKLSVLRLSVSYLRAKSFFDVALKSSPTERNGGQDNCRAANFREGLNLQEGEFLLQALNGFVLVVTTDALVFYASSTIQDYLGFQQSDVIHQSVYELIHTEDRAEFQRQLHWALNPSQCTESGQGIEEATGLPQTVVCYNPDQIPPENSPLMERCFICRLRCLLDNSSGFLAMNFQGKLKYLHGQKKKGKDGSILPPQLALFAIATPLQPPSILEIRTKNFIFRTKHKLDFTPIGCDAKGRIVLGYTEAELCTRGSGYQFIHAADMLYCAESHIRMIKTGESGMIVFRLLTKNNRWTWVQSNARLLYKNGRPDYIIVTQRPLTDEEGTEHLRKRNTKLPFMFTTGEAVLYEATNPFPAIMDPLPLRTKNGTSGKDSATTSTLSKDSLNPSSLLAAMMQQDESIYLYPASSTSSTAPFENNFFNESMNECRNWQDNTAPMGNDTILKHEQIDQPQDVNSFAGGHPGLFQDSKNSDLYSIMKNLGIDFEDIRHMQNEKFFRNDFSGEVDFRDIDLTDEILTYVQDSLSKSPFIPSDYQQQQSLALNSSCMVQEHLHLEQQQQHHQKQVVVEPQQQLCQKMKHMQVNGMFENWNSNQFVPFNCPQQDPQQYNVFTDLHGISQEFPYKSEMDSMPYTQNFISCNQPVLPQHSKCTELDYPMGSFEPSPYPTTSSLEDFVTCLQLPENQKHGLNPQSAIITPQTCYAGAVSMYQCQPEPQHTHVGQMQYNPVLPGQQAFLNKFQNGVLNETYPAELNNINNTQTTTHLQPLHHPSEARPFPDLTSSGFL
# Sequence of UniProt Q9UKP6 (whole entry, unmodified, looked up): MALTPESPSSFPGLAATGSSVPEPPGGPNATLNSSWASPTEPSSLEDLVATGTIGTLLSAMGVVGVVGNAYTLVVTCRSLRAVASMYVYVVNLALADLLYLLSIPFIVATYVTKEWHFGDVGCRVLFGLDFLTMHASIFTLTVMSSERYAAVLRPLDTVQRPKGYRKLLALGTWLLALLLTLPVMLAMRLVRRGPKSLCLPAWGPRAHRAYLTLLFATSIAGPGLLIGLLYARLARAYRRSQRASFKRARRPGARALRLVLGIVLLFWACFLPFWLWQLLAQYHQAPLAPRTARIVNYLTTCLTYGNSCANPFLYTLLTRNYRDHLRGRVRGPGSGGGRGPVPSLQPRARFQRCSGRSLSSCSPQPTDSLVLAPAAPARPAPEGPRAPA
# Sequence of UniProt P32214 (whole entry, looked up): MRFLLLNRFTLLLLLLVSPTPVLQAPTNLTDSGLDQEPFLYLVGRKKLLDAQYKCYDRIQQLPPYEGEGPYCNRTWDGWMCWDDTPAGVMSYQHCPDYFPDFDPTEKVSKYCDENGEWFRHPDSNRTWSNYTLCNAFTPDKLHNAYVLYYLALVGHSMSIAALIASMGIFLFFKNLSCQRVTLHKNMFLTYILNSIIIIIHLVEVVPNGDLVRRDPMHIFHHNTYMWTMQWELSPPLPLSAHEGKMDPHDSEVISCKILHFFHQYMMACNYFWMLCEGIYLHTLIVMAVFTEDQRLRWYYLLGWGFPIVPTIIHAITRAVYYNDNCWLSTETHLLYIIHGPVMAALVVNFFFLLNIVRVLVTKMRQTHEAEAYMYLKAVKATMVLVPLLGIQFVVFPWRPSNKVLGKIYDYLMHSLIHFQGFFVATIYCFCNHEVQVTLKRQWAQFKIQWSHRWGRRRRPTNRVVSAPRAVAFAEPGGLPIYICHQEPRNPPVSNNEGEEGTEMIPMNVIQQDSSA
# Sequence of UniProt Q9HB89 (whole entry, looked up): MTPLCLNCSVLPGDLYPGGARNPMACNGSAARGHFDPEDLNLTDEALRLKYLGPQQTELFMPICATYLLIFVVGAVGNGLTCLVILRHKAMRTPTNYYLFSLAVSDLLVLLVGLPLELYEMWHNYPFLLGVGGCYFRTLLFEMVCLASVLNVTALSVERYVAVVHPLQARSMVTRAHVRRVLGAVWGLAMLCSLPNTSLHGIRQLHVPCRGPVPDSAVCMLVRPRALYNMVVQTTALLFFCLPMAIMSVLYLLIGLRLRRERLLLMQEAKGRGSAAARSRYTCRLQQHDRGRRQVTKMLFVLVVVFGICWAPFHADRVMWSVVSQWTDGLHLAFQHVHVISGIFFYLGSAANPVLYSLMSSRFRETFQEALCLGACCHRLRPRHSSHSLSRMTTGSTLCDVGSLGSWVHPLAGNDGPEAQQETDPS
# Sequence of UniProt Q704Y3 (whole entry, unmodified, looked up): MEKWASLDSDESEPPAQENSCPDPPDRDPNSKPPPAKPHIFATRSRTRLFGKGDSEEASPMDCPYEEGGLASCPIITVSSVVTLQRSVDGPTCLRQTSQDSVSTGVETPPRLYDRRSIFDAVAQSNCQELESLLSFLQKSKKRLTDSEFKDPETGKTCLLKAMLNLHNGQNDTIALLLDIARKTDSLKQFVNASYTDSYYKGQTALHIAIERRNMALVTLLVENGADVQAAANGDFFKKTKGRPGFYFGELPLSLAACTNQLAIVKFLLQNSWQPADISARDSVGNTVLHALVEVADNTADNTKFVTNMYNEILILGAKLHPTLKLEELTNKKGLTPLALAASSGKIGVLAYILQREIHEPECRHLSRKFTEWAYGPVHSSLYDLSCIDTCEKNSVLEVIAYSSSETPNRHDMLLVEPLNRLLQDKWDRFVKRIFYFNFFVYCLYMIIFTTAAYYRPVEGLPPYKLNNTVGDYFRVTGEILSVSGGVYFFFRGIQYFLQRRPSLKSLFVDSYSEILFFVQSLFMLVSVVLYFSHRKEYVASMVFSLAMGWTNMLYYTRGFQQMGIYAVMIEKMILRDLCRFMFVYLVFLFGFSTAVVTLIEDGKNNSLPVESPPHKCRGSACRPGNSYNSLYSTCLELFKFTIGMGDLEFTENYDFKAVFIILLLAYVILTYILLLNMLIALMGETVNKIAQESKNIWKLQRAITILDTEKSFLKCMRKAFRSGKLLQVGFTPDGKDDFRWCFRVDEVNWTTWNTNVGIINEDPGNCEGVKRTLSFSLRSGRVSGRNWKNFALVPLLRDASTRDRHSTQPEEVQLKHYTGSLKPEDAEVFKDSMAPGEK
# Sequence of UniProt Q9JJ73 (whole entry, looked up): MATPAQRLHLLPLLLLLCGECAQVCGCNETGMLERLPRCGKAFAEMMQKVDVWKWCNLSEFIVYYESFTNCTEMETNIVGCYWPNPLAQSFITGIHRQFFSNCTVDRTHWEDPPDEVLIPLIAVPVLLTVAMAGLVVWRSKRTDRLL
Structure (SMILES),target,test,test system,setting,EC50 [nM]
CCCCC/C=C\C/C=C\C/C=C\C/C=C\CCCC(=O)NCCc1ccc(O)c(O)c1,"Trpv1 (Mus musculus, UniProt Q704Y3, T551S)","ion current, agonist, whole-cell patch clamp",,"24 °C, T551S, +80 mV",140 ± 70
CC(=O)N[C@@H](Cc1c[nH]cn1)C(=O)N[C@@H](C)C(=O)N[C@@H](CCC(=O)O)C(=O)NCC(=O)N[C@H](C(=O)N[C@@H](Cc1ccccc1)C(=O)N[C@H](C(=O)N[C@@H](CO)C(=O)N[C@@H](CC(=O)O)C(=O)N[C@H](C(=O)N[C@@H](CO)C(=O)N[C@@H](CO)C(=O)N[C@@H](Cc1ccc(O)cc1)C(=O)N[C@@H](CC(C)C)C(=O)N[C@@H](CCC(=O)O)C(=O)NCCN(CC(=O)N[C@@H](C)C(=O)N[C@@H](C)CN(CC(=O)N[C@@H](CCC(=O)O)C(=O)N[C@@H](Cc1ccccc1)CN(CC(=O)N[C@@H](C)C(=O)N[C@@H](Cc1c[nH]c2ccccc12)CN(CC(=O)N[C@H](C(=O)N[C@@H](CCCCN)CN(CC(=O)N[C@@H](CCCNC(=N)N)C(=O)N[C@@H](CCCCN)CN(CC(N)=O)S(C)(=O)=O)S(C)(=O)=O)C(C)C)S(=O)(=O)CC(C)C)S(=O)(=O)CC(C)C)S(=O)(=O)CCN)S(=O)(=O)CCN)C(C)C)[C@@H](C)O)[C@@H](C)O,GLP1R,"reporter gene, agonist, luciferase",,,> 1000
CC(C)[C@H](NC(=O)[C@@H]1CSSC(C)(C)[C@H](NC(=O)[C@@H](N)CC(=O)O)C(=O)N[C@@H](Cc2ccccc2)C(=O)N[C@@H](Cc2c[nH]c3ccccc23)C(=O)N[C@@H](CCCCN)C(=O)N[C@@H](Cc2ccc(O)cc2)C(=O)N1)C(=O)O,"UTS2R (Homo sapiens, UniProt Q9UKP6, L234A)","IP1 accumulation, agonist, HTRF",HEK293T,"1 h, 37 °C, L234A mutant, 5.61",0.398
CC[C@H](C)[C@H](NC(=O)[C@H](Cc1ccccc1)NC(=O)[C@H](CCC(=O)O)NC(=O)[C@H](CCCCN)NC(=O)[C@H](C)NC(=O)[C@H](C)NC(=O)[C@H](CCC(N)=O)NC(=O)CNC(=O)[C@H](CCC(=O)O)NC(=O)[C@H](CC(C)C)NC(=O)[C@H](Cc1ccc(O)cc1)NC(=O)[C@H](CO)NC(=O)[C@H](CO)NC(=O)[C@@H](NC(=O)[C@H](CC(=O)O)NC(=O)[C@H](CO)NC(=O)[C@@H](NC(=O)[C@H](Cc1ccccc1)NC(=O)[C@@H](NC(=O)CNC(=O)[C@H](CCC(=O)O)NC(=O)CNC(=O)[C@@H](N)Cc1c[nH]cn1)[C@@H](C)O)[C@@H](C)O)C(C)C)C(=O)N[C@@H](C)C(=O)N[C@@H](Cc1c[nH]c2ccccc12)C(=O)N[C@@H](CC(C)C)C(=O)N[C@H](C(=O)N[C@@H](CCCCN)CN(CC(=O)N[C@@H](CCCNC(=N)N)C(=O)N[C@@H](CCCCN)CN(CC(N)=O)S(C)(=O)=O)S(C)(=O)=O)C(C)C,GLP1R,"reporter gene, agonist, luciferase",,,0.06
CC(=O)Nc1ccc(C(C)(C)NC(=O)c2ccn(Cc3ccc(Cl)cc3)n2)c(Cl)c1,CNR1,"calcium signal, agonist",,,1470
CCN(Cc1ccccc1)C(=O)CCc1nc(CN2CCN(C(=O)Cc3ccc(OC)c(OC)c3)CC2)no1,"SCN9A (Homo sapiens, UniProt Q15858)","inactivation V1/2 shift, whole-cell patch clamp","stable HEK cells, NaV1.7 current",,36.7 ± 17.7
CCCCCn1ccc(C(=O)NC(C)(C)c2ccc(CNC(C)=O)cc2)n1,CNR1,"β-arrestin recruitment, agonist",,,186
CC[C@H](C)[C@H](NC(=O)[C@H](Cc1ccccc1)NC(=O)[C@H](CCC(=O)O)NC(=O)[C@H](CCCCN)NC(=O)[C@H](C)NC(=O)[C@H](C)NC(=O)[C@H](CCC(N)=O)NC(=O)CNC(=O)[C@H](CCC(=O)O)NC(=O)[C@H](CC(C)C)NC(=O)[C@H](Cc1ccc(O)cc1)NC(=O)[C@H](CO)NC(=O)[C@H](CO)NC(=O)[C@@H](NC(=O)[C@H](CC(=O)O)NC(=O)[C@H](CO)NC(=O)[C@@H](NC(=O)[C@H](Cc1ccccc1)NC(=O)[C@@H](NC(=O)CNC(=O)[C@H](CCC(=O)O)NC(=O)[C@H](C)NC(=O)[C@H](Cc1c[nH]cn1)NCC(F)(F)C(F)(F)C(F)(F)F)[C@@H](C)O)[C@@H](C)O)C(C)C)C(=O)N[C@@H](C)C(=O)N[C@@H](Cc1c[nH]c2ccccc12)C(=O)N[C@@H](CC(C)C)C(=O)N[C@H](C(=O)N[C@@H](CCCCN)C(=O)NCC(=O)N[C@@H](CCCNC(=N)N)C(N)=O)C(C)C,GLP1R,"reporter gene, agonist, luciferase",,,0.001
CCCCCn1ccc(C(=O)NC(C)(C)c2ccccc2)n1,CNR1,"calcium signal, agonist",,,126
CC(C)C[C@H](NC(=O)[C@H](Cc1ccc(O)cc1)NC(=O)[C@H](CO)NC(=O)[C@H](CO)NC(=O)[C@@H](NC(=O)[C@H](CC(=O)O)NC(=O)[C@H](CO)NC(=O)[C@@H](NC(=O)[C@H](Cc1ccccc1)NC(=O)[C@@H](NC(=O)CNC(=O)[C@H](CCC(=O)O)NC(=O)[C@H](C)NC(=O)[C@@H](N)Cc1c[nH]cn1)[C@@H](C)O)[C@@H](C)O)C(C)C)C(=O)N[C@@H](CCC(=O)O)C(=O)NCC(=O)N[C@@H](CCC(N)=O)C(=O)N[C@@H](C)C(=O)N[C@@H](C)CN(CC(=O)N[C@@H](CCC(=O)O)C(=O)N[C@@H](Cc1ccccc1)CN(CC(=O)N[C@@H](C)C(=O)N[C@@H](Cc1c[nH]c2ccccc12)CN(CC(=O)N[C@H](C(=O)N[C@@H](CCCCN)CN(CC(=O)N[C@@H](CCCNC(=N)N)C(=O)N[C@@H](CCCCN)CN(CC(N)=O)S(C)(=O)=O)S(C)(=O)=O)C(C)C)S(=O)(=O)CC(C)C)S(=O)(=O)CC(C)C)S(=O)(=O)CCN,GLP1R,"reporter gene, agonist, luciferase",,,> 1000
CC(CCC(=O)NCC(=O)O)C1CCC2C3C(O)CC4CC(OS(=O)(=O)O)CCC4(C)C3CC(O)C12C (centres unmarked),"GPBAR1 (Homo sapiens, UniProt Q8TDU6)",agonist,,,> 200000
O=C(O)CCn1c(=O)oc2cc(Cl)c(Cl)cc21,"AHR (Homo sapiens, UniProt P35869)",agonist,,,20000
CC[C@H](C)[C@@H]1NC(=O)[C@H](CC(N)=O)NC(=O)[C@@H]2CCCN2C(=O)[C@@H](NC(=O)[C@H](CC(N)=O)NC(=O)[C@@H](N)CCC(N)=O)COC(=O)[C@H](CCSC)NC(=O)[C@H](Cc2c[nH]c3ccccc23)NC(=O)CN(CCC(N)=O)C(=O)CNC(=O)[C@H](Cc2ccccc2)NC1=O,"Fsr quorum sensing protein (Enterococcus faecalis, UniProt A0ACD6TCR9)","Fsr quorum sensing, agonist, β-galactosidase reporter",,,> 10000
CCCCCCCCCCCCCCCCCC(=O)NC[C@H]1CC[C@H](C(=O)N[C@@H](CCC(=O)NCCCOCCOCCOCCCNC(=O)COCC(=O)N[C@@H](Cc2ccc(O)cc2)C(=O)NC(C)(Cc2ccccc2)C(=O)N[C@@H](CC(C)C)C(=O)N[C@@H](CCCC)C(=O)N[C@@H](CCCNC(=N)N)C(=O)N2CCC[C@H]2C(=O)N[C@@H](CCCNC(=N)NC)C(=O)N[C@@H](CC(N)=O)C(N)=O)C(=O)O)CC1 (some centres unmarked),"NMUR1 (Homo sapiens, UniProt Q9HB89)","inositol phosphate, agonist, TR-FRET",,,> 10000
CC[C@H](C)[C@H](NC(=O)[C@H](C)NC(=O)CNC(=O)[C@H](Cc1ccccc1)NC(=O)[C@H](CC(N)=O)NC(=O)[C@H](CC(N)=O)NC(=O)[C@H](CO)NC(=O)[C@H](CO)NC(=O)[C@H](Cc1c[nH]cn1)NC(=O)[C@@H](NC(=O)[C@H](CC(C)C)NC(=O)[C@H](Cc1ccccc1)NC(=O)[C@H](CC(N)=O)NC(=O)[C@H](C)NC(=O)[C@H](CC(C)C)NC(=O)[C@H](CCCNC(=N)N)NC(=O)[C@H](CCC(N)=O)NC(=O)[C@@H](NC(=O)[C@H](C)NC(=O)[C@@H]1CSSC[C@H](NC(=O)[C@H](CCCCN)NC(=O)[C@H](CCCNC(=N)N)NC(=O)[C@H](CCCCN)NC(=O)[C@H](CCC(=O)O)NC(=O)[C@@H](NC(=O)[C@H](CCC(N)=O)NC(=O)[C@H](Cc2c[nH]cn2)NC(=O)[C@H](CO)NC(=O)[C@H](CCC(=O)O)NC(=O)[C@@H](NC(=O)[C@@H]2CCCN2C(=O)[C@@H](N)[C@@H](C)O)[C@@H](C)CC)C(C)C)C(=O)N[C@@H](CC(N)=O)C(=O)N[C@@H]([C@@H](C)O)C(=O)N[C@@H](C)C(=O)N[C@@H]([C@@H](C)O)C(=O)N1)[C@@H](C)O)C(C)C)C(=O)N[C@@H](CC(C)C)C(=O)N[C@@H](CO)C(=O)N[C@@H](CO)C(=O)N[C@H](C(=O)N[C@@H](CC(N)=O)C(=O)N[C@H](C(=O)NCC(=O)N[C@@H](CO)C(=O)N[C@@H](CC(N)=O)C(=O)N[C@H](C(=O)N[C@@H](Cc1ccc(O)cc1)C(N)=O)[C@@H](C)O)C(C)C)[C@@H](C)O,"Amylin receptor AMY3; CALCR/RAMP3 (Rattus norvegicus, UniProt P32214+Q9JJ73)","cAMP accumulation, agonist","COS-7, transfected",,38
CCCCCn1ccc(C(=O)NC(C)(C)c2cccc(C)c2)n1,CNR1,"calcium signal, agonist",,,> 10000
CC[C@H](C)[C@H](NC(=O)[C@H](Cc1ccccc1)NC(=O)[C@H](CCC(=O)O)NC(=O)[C@H](CCCCN)NC(=O)[C@H](C)NC(=O)[C@H](C)NC(=O)[C@H](CCC(N)=O)NC(=O)CNC(=O)[C@H](CCC(=O)O)NC(=O)[C@H](CC(C)C)NC(=O)[C@H](Cc1ccc(O)cc1)NC(=O)[C@H](CO)NC(=O)[C@H](CO)NC(=O)[C@@H](NC(=O)[C@H](CC(=O)O)NC(=O)[C@H](CO)NC(=O)[C@@H](NC(=O)[C@H](Cc1ccccc1)NC(=O)[C@@H](NC(=O)CNC(=O)[C@H](CCC(=O)O)NC(=O)[C@H](C)NC(=O)[C@H](Cc1c[nH]cn1)NC(C)=O)[C@@H](C)O)[C@@H](C)O)C(C)C)C(=O)N[C@@H](C)C(=O)N[C@@H](Cc1c[nH]c2ccccc12)C(=O)N[C@@H](CC(C)C)C(=O)N[C@H](C(=O)N[C@@H](CCCCN)CN(CC(=O)N[C@@H](CCCNC(=N)N)C(=O)N[C@@H](CCCCN)CN(CC(N)=O)S(C)(=O)=O)S(C)(=O)=O)C(C)C,GLP1R,"reporter gene, agonist, luciferase",,,1.49

# Some of these lines once more:
Structure (SMILES),target,test,test system,setting,EC50 [nM]
CCCCCn1ccc(C(=O)NC(C)(C)c2ccccc2)n1,CNR1,"calcium signal, agonist",,,126
